# Measured values gathered from unrelated publications.
# Each line is one published result; not all experiments were run side by side.
# Sample: plasma
Compound,system,setting,AUC
CN[C@H](CC(C)C)C(=O)N[C@H]1C(=O)N[C@@H](CC(N)=O)C(=O)N[C@H]2C(=O)N[C@H]3C(=O)N[C@H](C(=O)N[C@H](C(=O)N[C@H](CCCNC(=N)N)C(N)=O)c4cc(O)cc(O)c4-c4cc3ccc4O)[C@H](O)c3ccc(c(Cl)c3)Oc3cc2cc(c3O[C@@H]2O[C@H](CO)[C@@H](O)[C@H](O)[C@H]2O[C@H]2C[C@](C)(N)[C@H](O)[C@H](C)O2)Oc2ccc(cc2Cl)[C@H]1O,female CD-1 mouse,"intravenous, 5 mg/kg, single dose",8870 ng·h/mL
COC1C(c2ccc(Cl)c(Cc3ccc(OC4CCOC4)cc3)c2)OC(CO)C(O)C1O (stereo not shown),CD-1 mouse,"intravenous, 5 mg/kg",12900 ng·h/mL
O=C1CCC(N2C(=O)c3ccc(N4CCC(C(=O)N5CCC(CCN6CCC(CNC(=O)c7cccc(-c8noc(C(F)(F)F)n8)c7)(c7nc(-c8ccccc8)cs7)CC6)CC5)CC4)cc3C2=O)C(=O)N1 (stereo not shown),CD-1 mouse,"oral, 30 mg/kg",826 ng·h/mL
O=S(=O)(Nc1ccc(OC(F)(F)F)cc1)N1CCCC(C2c3ccc(F)cc3CCc3cc(F)ccc32)C1 (stereo not shown),mouse,"oral, 30 mg/kg",44800 ng·h/mL
COC1C=COC2(C)Oc3c(C)c(O)c4c(c3C2=O)C2=NC3(CCN(CC(C)C)CC3)NC2=C(NC(=O)C(C)=CC=CC(C)C(O)C(C)C(O)C(C)C(OC(=O)Nc2cnccn2)C1C)C4=O (stereo not shown),female CD-1 mouse,"intravenous, 5 mg/kg",38000 ng·h/mL
Cc1cc(C(=O)N[C@@H](CC(=O)NC(C)(C)C)C(=O)NCCNC(=O)c2cccc(-c3cc[nH]n3)c2)no1,mouse,"intravenous, 0.1 mg/kg",12.6 ng·h/mL
COc1ccccc1NC(=O)OC1C(C)C(OC)C=COC2(C)Oc3c(C)c(O)c4c(c3C2=O)C2=NC3(CCN(CC(C)C)CC3)NC2=C(NC(=O)C(C)=CC=CC(C)C(O)C(C)C(O)C1C)C4=O (stereo not shown),female CD-1 mouse,"oral, 10 mg/kg",10200 ng·h/mL
Cc1cc(C(=O)N[C@@H](CC(=O)NC(C)(C)C)C(=O)NCCNC(=O)c2cccc(-n3cccn3)c2)no1,mouse,"intravenous, 0.1 mg/kg",14.1 ng·h/mL
COC1C=COC2(C)Oc3c(C)c(O)c4c(c3C2=O)C2=NC3(CCN(CC(C)C)CC3)NC2=C(NC(=O)C(C)=CC=CC(C)C(O)C(C)C(O)C(C)C(OC(=O)Nc2cscn2)C1C)C4=O (stereo not shown),female CD-1 mouse,"intravenous, 5 mg/kg",33900 ng·h/mL
O=S(=O)(N[C@H]1CCO[C@@H](C2c3ccc(F)cc3CCc3cc(F)ccc32)C1)c1ccc(OC(F)(F)F)cc1,mouse,"oral, 30 mg/kg",22400 ng·h/mL

# Excerpt of the above:
Compound,system,setting,AUC
COc1ccccc1NC(=O)OC1C(C)C(OC)C=COC2(C)Oc3c(C)c(O)c4c(c3C2=O)C2=NC3(CCN(CC(C)C)CC3)NC2=C(NC(=O)C(C)=CC=CC(C)C(O)C(C)C(O)C1C)C4=O (stereo not shown),female CD-1 mouse,"oral, 10 mg/kg",10200 ng·h/mL
O=S(=O)(Nc1ccc(OC(F)(F)F)cc1)N1CCCC(C2c3ccc(F)cc3CCc3cc(F)ccc32)C1 (stereo not shown),mouse,"oral, 30 mg/kg",44800 ng·h/mL
